Assay results from different studies.
Compare with care: the assays were run in different laboratories. ± marks the error that the study gave.

For `CCCCCCCCCCCCCCCC(=O)N[C@@H](CCC(=O)NCCCC[C@H](NC(=O)[C@H](CC(=O)O)NC(=O)[C@H](CO)NC(=O)[C@@H](NC(=O)[C@H](Cc1ccccc1)NC(=O)[C@@H](NC(=O)CNC(=O)[C@H](CCC(N)=O)NC(=O)[C@H](CO)NC(=O)[C@@H](N)Cc1c[nH]cn1)[C@@H](C)O)[C@@H](C)O)C(=O)N[C@@H](CO)C(=O)N[C@@H](CCC(=O)O)C(=O)N[C@@H](Cc1ccc(O)cc1)C(=O)N[C@@H](CC(C)C)C(=O)N[C@@H](CC(=O)O)C(=O)N[C@@H](CO)C(=O)N[C@@H](CCC(=O)O)C(=O)N[C@@H](CCCNC(=N)N)C(=O)N[C@@H](C)C(=O)N[C@@H](CCCNC(=N)N)C(=O)N[C@@H](CC(=O)O)C(=O)N[C@@H](Cc1ccccc1)C(=O)N[C@H](C(=O)N[C@@H](C)C(=O)N[C@@H](Cc1c[nH]c2ccccc12)C(=O)N[C@@H](CC(C)C)C(=O)N[C@@H](CCC(=O)O)C(=O)N[C@@H](C)C(=O)NCC(=O)NCC(=O)O)C(C)C)C(=O)O`, “treatment-related adverse events” read 2.7% (measured: Flatulence; humans all renal groups; subcutaneous, 100 µg single dose).
Under “subjects with drug-related fatigue”, `C[C@]1(CO)Cc2ncn(-c3ccc(C#N)c(Cl)c3)c2C(=O)O1` is recorded as 0% (human; 10 mg multiple doses, fasted).
Under “abdominal pain incidence”, `COc1ccc([C@@H](O)c2cc(-c3ncnc4cc(N5CCOCC5)ccc34)c(F)cc2Cl)nn1` is recorded as 4% (patients, advanced solid tumours; oral, 300 mg twice daily, treatment-emergent, with: avelumab).
With `CCN1[C@@H](C(=O)NC23CCC(C(=O)O)(CC2)CC3)[C@H](c2cccc(Cl)c2F)[C@]2(C(=O)Nc3cc(Cl)ccc32)C12CCCCC2` the Neutropenia incidence was 27.3% (patients with advanced solid tumours; oral, 100 mg).
`CN1CC[C@@H](c2c(O)cc(O)c3c(=O)cc(-c4ccc(C(F)(F)F)cc4Cl)oc23)[C@@H]1CO` — result for “patients with adverse event”: 20% (measured: Neutropenia; relapsed AML; oral, 200 mg, grade 3-4, intermittent dosing).
For `COc1cc2c(Oc3ccc4[nH]c(C)cc4c3F)ccnc2cc1OCC1(N)CC1`, “grade 1 or 2 gingival bleeding” read 0% (paediatric recurrent refractory sarcoma; 8 mg).
Under “subjects with Dysmenorrhoea adverse event”, `O=C(Nc1ccccc1)C1CCN(C(=O)Oc2cccnc2)CC1` is recorded as 0% (adverse event reporting; healthy women; oral, 100 mg, 9 days).
The phosphorus of `CC(C)C[C@H](NC(=O)[C@H](CCCCN)NC(=O)OCC1c2ccccc2-c2ccccc21)C(=O)N[C@H](C(=O)N[C@@H](Cc1ccccc1)C(=O)N[C@@H](Cc1ccccc1)C(=O)N[C@@H](CCCCN)C(=O)NCC(=O)N[C@@H](Cc1ccccc1)C(=O)N[C@@H](C)C(=O)N[C@@H](Cc1c[nH]c2ccccc12)C(=O)N[C@@H](CC(N)=O)C(=O)N[C@H](C(=O)N[C@H]1CSSC[C@@H](C(=O)N[C@@H](Cc2c[nH]cn2)C(=O)N[C@@H](CCCNC(=N)N)C(=O)N[C@@H](CCCNC(=N)N)C(=O)N[C@@H](C)C(=O)N[C@@H](CC(N)=O)C(N)=O)NC(=O)[C@H](C(C)C)NC(=O)[C@H](CCCNC(=N)N)NC(=O)[C@H](C(C)C)NC(=O)CNC(=O)[C@H](CC(N)=O)NC(=O)[C@H](CCCNC(=N)N)NC(=O)[C@H](Cc2ccc(O)cc2)NC(=O)[C@H](C(C)C)NC1=O)C(C)C)C(C)C` is reported as 3.21 ± 0.07 mmol/L (ICR mice, serum; intraductal mammary, 10 mg/kg, day 5).
`CC(C)CC(=O)OC[C@H]1O[C@@](C#N)(c2ccc3c(N)ncnn23)[C@H](O)[C@@H]1O` gave a recovery of 90.9% (plasma protein binding; rat plasma; 9 µM, time not given).
`CO[C@H]1C[C@@H]2CC[C@@H](C)[C@@](O)(O2)C(=O)C(=O)N2CCCC[C@H]2C(=O)O[C@H]([C@H](C)C[C@@H]2CC[C@@H](OC(=O)NCCOCCOCCOCCOCCOCCOCCOCCOCCC(=O)N3CCc4cc(Cn5nc(-c6ccc7oc(N)nc7c6)c6c(N)ncnc65)ccc4C3)[C@H](OC)C2)C[C@@H](O)[C@H](C)/C=C(\C)[C@@H](O)[C@@H](OC)C(=O)[C@H](C)C[C@H](C)/C=C/C=C/C=C/1C`: “dose-reducing adverse events” 0% (phase 1 dose escalation, measured: mucositis; advanced solid tumour patients; intravenous, 6 mg weekly, any grade).
The AUC(0-last) of `CCC[C@@](N)(CO)CCc1ccc(OCCCCCC(C)C)cc1` is reported as 4.44 µM·h (hound dogs, male; intravenous, 1.0 mg/kg, geometric mean).
`COc1ccnc(C(=O)N[C@H]2COC(=O)[C@H](Cc3ccccc3)[C@@H](OC(=O)C(C)C)[C@H](C)OC2=O)c1OCOC(=O)C(C)C` gave a DT50 water of 0.12 days (Staffordshire loam sediment, aerobic dark; 20 °C).
For `CCCSc1ccc2nc(NC(=O)OC)[nH]c2c1`, the aspartate aminotransferase was 52.7 U/L (mouse, blood; oral, 50 mg/kg, tolerability, mean).
Under “grade ≥3 lymphopenia”, `NC(=O)[C@H]1CCN(c2ncnc(N)c2F)C[C@@H]1N1CCC[C@@H](Nc2cc(Cl)cc(C(F)(F)F)c2)C1=O` is recorded as 33% (B-cell malignancy patients; oral, 20.5 mg twice daily, dose).

Repeated from above:
Under “subjects with drug-related fatigue”, `C[C@]1(CO)Cc2ncn(-c3ccc(C#N)c(Cl)c3)c2C(=O)O1` is recorded as 0% (human; 10 mg multiple doses, fasted).
